Measurements gathered from unrelated publications.
Every numbered part comes from another study and shows a few of its results, in no order. Changes are numbered by the printed parent chain.

Set 1
Target: ABI1, truncated, D143A, DHFR fusion (Arabidopsis thaliana)
Technique: DHFR PCA, deep sequencing
Matrix: yeast
Setting: methotrexate growth selection, single substitutions
With: (+)-ABA 17 µM
Relative to: wild-type fitted maximum
Reading: higher = stronger binding
Starting sequence: PYL1, truncated, DHFR fusion (Arabidopsis thaliana); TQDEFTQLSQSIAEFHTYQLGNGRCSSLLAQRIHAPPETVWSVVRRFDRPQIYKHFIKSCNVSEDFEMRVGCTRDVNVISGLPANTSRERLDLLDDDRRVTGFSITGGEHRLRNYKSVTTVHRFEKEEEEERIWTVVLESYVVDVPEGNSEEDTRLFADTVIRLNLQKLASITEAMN
| Variant | relative binding score |
| --- | --- |
| S26G | 77.3% |
| P50V | 1.38% |
| E151H | 70.4% |
| N85G | 72.2% |
| L93D | 7.64% |
| M176N | 72.3% |
| F124E | 82.3% |
| D3C | 82.2% |
| T154C | 79.1% |
| L28I | 80.2% |
| C60K | -11.9% |
| Y53I | 14.4% |
| P146A | 62.1% |
| R99S | 20.7% |
| S27I | 1.44% |
| F103E | -8.94% |
| I133A | 96.9% |
| V142A | 75.3% |
| H16N | -3.02% |
| K58Y | 59.6% |
| N149H | 9.5% |
| T1M | 83.9% |
| Y18A | 60.3% |
| A170S | 65.7% |
| E139P | -8.98% |

Set 2
Target: CCNE2, cyclin fold, Cln2 fusion (human)
Technique: yeast growth competition, sequencing
Matrix: yeast
Setting: weak parent motif
Relative to: not given
Reading: higher = stronger binding
Starting sequence: RRM2 docking peptide (human); SKTARRIFQEPTE; partner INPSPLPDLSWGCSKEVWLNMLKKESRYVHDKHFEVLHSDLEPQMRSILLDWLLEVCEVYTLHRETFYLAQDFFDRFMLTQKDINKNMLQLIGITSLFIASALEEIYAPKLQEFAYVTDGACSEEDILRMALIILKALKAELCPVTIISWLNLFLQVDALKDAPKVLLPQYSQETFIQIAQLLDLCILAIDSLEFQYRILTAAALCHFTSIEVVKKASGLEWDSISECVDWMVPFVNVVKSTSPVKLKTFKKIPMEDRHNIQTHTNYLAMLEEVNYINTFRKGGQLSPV
| Variant | normalised enrichment score |
| --- | --- |
| SKTARAIFQEPTE [R6A] | -0.0896 |
| SKTARRIFAEPTE [Q9A] | 0.821 |
| SKTARRAFQEPTE [I7A] | 0.216 |
| SKTARRIAQEPTE [F8A] | 0.371 |
| SATARRIFQEPTE [K2A] | 0.404 |
| SKTARRIFQEPTA [E13A] | 0.396 |

Set 3
Target: Hepatocyte nuclear factor 3-beta, forkhead domain (FOXA2, Homo sapiens, UniProt Q9Y261, residues 142-269)
Technique: protein-binding microarray
Molecule type: double-stranded DNA, one strand shown
Matrix: in vitro
Tested at: not given
Setting: k-mer, scored over probes, only values ≥0.25
Reading: higher = stronger binding
Construct (chain): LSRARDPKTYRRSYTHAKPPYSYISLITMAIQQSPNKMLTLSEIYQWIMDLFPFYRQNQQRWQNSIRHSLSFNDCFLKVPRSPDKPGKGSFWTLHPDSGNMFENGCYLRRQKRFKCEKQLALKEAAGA
| Sequence | E-score |
| --- | --- |
| ACTGTTAT | 0.312 |
| TACGGACA | 0.297 |
| CCTTATTA | 0.306 |
| CATTTCAA | 0.323 |
| ATAGATTA | 0.343 |
| TACCAGTA | 0.273 |
| ATGTTTGG | 0.298 |
| AAACAATA | 0.342 |
| ATTACGTA | 0.302 |
| ATAGTCAG | 0.275 |
| GATAACTA | 0.338 |
| TGAAATAA | 0.271 |
| ATATATTC | 0.308 |
| AACTACAC | 0.254 |
| CATCAATC | 0.287 |

Set 4
Target: Interferon regulatory factor 5, full length, phosphomimetic (IRF5, Homo sapiens, UniProt Q13568-2, residues 1-514, S451D/S453D/S456D/S462D)
Technique: protein-binding microarray
Molecule type: double-stranded DNA, one strand shown
Matrix: in vitro
Tested at: 940 nM top
Setting: 60-bp whole probe
With: salmon DNA 0.4 mg/ml
Relative to: random background probes
Reading: higher = stronger binding
Shared flanks, not repeated: GCCTAGCAC … GTCTTGATTCGCTTGACGCTGCTG
| Sequence | fitted relative affinity [z-score] |
| --- | --- |
| TTAAATCTCAGTCTCGATTAGTGCTAG | 3.66 |
| GCTAGTTCAGTTCTCTAGAAGTGCTAG | -0.124 |
| TCATGTCTCTGGCCTGGGACTGTGCTA | 0.0136 |
| GCTCCTCTTTTTTTGGTAATGTGCTAG | 1.13 |
| TTCTCTTTTATTTTTTTTATGTGCTAG | 2.67 |
| GACGATTTCAGACTGGAGTCGTGCTAG | -0.56 |
| GACAATTTCGGGTTTCGAGACGTGCTA | 2.52 |
| GACGATTTCAGTTCCGAGATGTGCTAG | 0.613 |
| GACGAACTGAGTTTCGACACGTGCTAG | 4.17 |
| TTAGCTCTCAGACTGGATTAGTGCTAG | 0.202 |
| GACGACTTCAGTTCCGAGACGTGCTAG | 0.328 |
| CTTTCTTTACTTCACTCTCTGTGCTAG | 2.24 |
| GACGGTCTCCTTATCATGACGTGCTAG | 0.635 |
| GAGTTTCTATTTTCTGAATGGTGCTAG | 6.44 |
| AACGGACTGGGTCTCGGGACGTGCTAG | -0.195 |
| GACGGTATCGGACTGGGGATGTGCTAG | 2.37 |
| TCAATTTTCTTTAACTCACTGTGCTAG | 1.14 |
| GTAGATATCAGACTGGATTAGTGCTAG | -0.402 |
| TCAAGTGTTTTTCTCCTACTGTGCTAG | 0.556 |

Set 5
Target: UBE2Q2 UBC core domain (UniProt Q8WVN8)
Sequence of UniProt Q8WVN8 (whole entry, looked up): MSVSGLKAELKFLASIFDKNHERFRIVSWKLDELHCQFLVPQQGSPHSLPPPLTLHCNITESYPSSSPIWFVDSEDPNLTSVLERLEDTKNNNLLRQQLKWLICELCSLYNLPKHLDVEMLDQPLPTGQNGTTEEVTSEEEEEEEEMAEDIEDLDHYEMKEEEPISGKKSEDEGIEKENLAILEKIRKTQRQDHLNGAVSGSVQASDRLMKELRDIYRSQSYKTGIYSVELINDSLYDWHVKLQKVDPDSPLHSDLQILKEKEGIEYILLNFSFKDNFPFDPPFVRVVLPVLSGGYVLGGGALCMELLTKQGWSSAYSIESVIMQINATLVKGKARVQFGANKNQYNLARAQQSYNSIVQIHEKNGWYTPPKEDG
Technique: yeast two-hybrid
Matrix: yeast
Setting: mostly zero background
Relative to: not given
Reading: higher = stronger interaction
B1: RNF175 RING domain (UniProt Q8N4F7); chain LPTRSLSDNICAVCGQKIIVELDEEGLIENTYQLSCNHVFHEFCIRGWCIVGKKQTCPYCKEKVDLKRMIS
B2: TRIM38 RING domain (UniProt O00635); chain STKKMMEEATCSICLSLMTNPVSINCGHSYCHLCITDFFKNPSQKQLRQETFCCPQCRAPFHMDSLRP
B3: RNF43 RING domain (UniProt Q68DV7); chain SGSSCSSAPVCAICLEEFSEGQELRVISCLHEFHRNCVDPWLHQHRTCPLCMFNITEGDSFS
B4: PHF7 RING domain (UniProt Q9BWX1); chain IQHGHVGEESCILCCEDLSQQSVENIQSPCCSQAIYHRKCIQKYAHTSAKHFFKCPQCNNRKEFPQEML
B5: NSMCE1 RING domain (UniProt Q8WV22); chain RETYPDAVKICNICHSLLIQGQSCETCGIRMHLPCVAKYFQSNAEPRCPHCNDYWPHEIPKV
B6: UBE4A RING domain (UniProt Q14139); chain LQQQEEETYADACDEFLDPIMSTLMCDPVVLPSSRVTVDRSTIARHLLSDQTDPFNRSPLTMDQIRPNTELKEKIQRWLAERKQQKEQLE
B7: RFPL2 RING domain (UniProt O75678); chain MAALFQEASSCPVCSDYLEKPMSLECGCAVCLKCINSLQKEPHGEDLLCCCSSMVSRKNKIRR
B8: RNF14 RING domain (UniProt Q9UBS8); chain IKCFNSKLFLCSICFCEKLGSECMYFLECRHVYCKACLKDYFEIQIRDGQVQCLNCPEPKCPSVATPGQVK
| Sequence | lacZ reporter activity |
| --- | --- |
| B1 (RNF175 RING domain) | 0 |
| KIKDLNEHIVCCLCAGYFVDATTITECLHTFCKSCIVKYLQTSKYCPMCNIKIHETQPLL (PCGF1 RING domain (UniProt Q9BSM1)) | 0 |
| B2 (TRIM38 RING domain) | 0 |
| B3 (RNF43 RING domain) | 0 |
| B4 (PHF7 RING domain) | 0 |
| B5 (NSMCE1 RING domain) | 0 |
| B6 (UBE4A RING domain) | 0 |
| B7 (RFPL2 RING domain) | 0 |
| B8 (RNF14 RING domain) | 0 |
| SYEDKSNDFVCPICFDMIEEAYMTKCGHSFCYKCIHQSLEDNNRCPKCNYVVDNIDHLY (COP1 RING domain (UniProt Q8NHY2)) | 0 |

Repeated from above (set 4):
| Sequence | fitted relative affinity [z-score] |
| --- | --- |
| TTAAATCTCAGTCTCGATTAGTGCTAG | 3.66 |
| GCTAGTTCAGTTCTCTAGAAGTGCTAG | -0.124 |
| TCATGTCTCTGGCCTGGGACTGTGCTA | 0.0136 |
| GCTCCTCTTTTTTTGGTAATGTGCTAG | 1.13 |
| TTCTCTTTTATTTTTTTTATGTGCTAG | 2.67 |
| GACGATTTCAGACTGGAGTCGTGCTAG | -0.56 |
